# Measurements collected from several papers.
# Numbered parts are unrelated; each lists some results of a single study.

# Series 1 — method: RNA Bind-n-Seq; form: RNA; sample: in vitro; tested at: 365 nM; reference: no-protein control; reading: higher = stronger binding
# Target: RNA binding protein fox-1 homolog 2, RRM domain, GST-SBP tag (RBFOX2, Homo sapiens, UniProt O43251-10, residues 100-194)
# Notes: natural RNA segment, single round, ends assumed
# Target sequence (chain): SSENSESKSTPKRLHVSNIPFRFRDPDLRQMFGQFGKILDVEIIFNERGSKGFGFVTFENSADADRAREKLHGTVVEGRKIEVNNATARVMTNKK
Oligonucleotide,RBNS enrichment (R)
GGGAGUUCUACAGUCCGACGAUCUAGCUAGAAUGGCAUGAUGUCACUGUUCUUUUCCUGUGGCUUUUUAUUGUUGUUUCUCAUCAUUCUCACCUCGAGGAAGAGCAAGAGACUUAACCAGCAGGGCAAAUUCCUGGAAUUCUCGGGUGCCAA,0.363
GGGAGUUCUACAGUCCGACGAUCCAGCCUGUCCUGGCUGCUCACCUCCCCGCAGGGCACCGGGCCUUUCCUGCCCUCUGUGGUCAUCUGCCACCUGCUGGAUCAAGUGCUUUCUCUUUUACACUCCCCUGUCCUGGAAUUCUCGGGUGCCAA,0.383
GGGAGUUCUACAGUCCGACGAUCGGUUAUUGACCUCCUGGGUCCUACUCCACCCUAUCACCUACCCCCGUGACCCCCGGGAUCCCGCCGGUUUUUUCCCCUCCUGGGGGCUCAUGGGGGAGAAUUCCCAGCUCUGGAAUUCUCGGGUGCCAA,0.537
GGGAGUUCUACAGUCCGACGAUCCCCCACGGGUACCAGGAAGUGCAGAGCCGCACAGGAGCUGCCCCGGAGCUGAGGGGACGGUCUUCGGCUCCUCUGCACCCCGUGAUUCUGCCCACGCUCCUCCACCACGAUGGAAUUCUCGGGUGCCAA,0.465
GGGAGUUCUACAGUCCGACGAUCACUUGCCAGCCACCACAGGGCUCAUGAGGGGCUUGAACCCAUGUCGUGUGUCUCUACCACAGCUGACUCUCAGCUGGCUAAUGGAGAAAAUGUGAGGAAUUACCUGUCAAUGGAAUUCUCGGGUGCCAA,0.334
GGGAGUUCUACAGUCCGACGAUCAGUGUUUGUAUGAAUCCUCUCUAGGGGGAGCCUACAAGCAGUUGGUCCGUGCCCGGUUCACUCGGUCUUUCCUGGCCCAAAUCAUAGGACUCCGUAUGCAUUACAAGUACUGGAAUUCUCGGGUGCCAA,0.331
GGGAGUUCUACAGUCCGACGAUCCUUUGUAAGAUAGAGAUUGUUGAAAAUUCUAUUUUUGUUUUUCAAGUCCUCCCACCCCAGGACUCUAAAUUAUUGGGGUAAAAAACAGCCUUGCAAGAAAAAGGGGAGCUUGGAAUUCUCGGGUGCCAA,1.08
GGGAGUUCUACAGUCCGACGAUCGAAGACUUGAUUGAUAGCAUGGUUUCAAGAGAGAAGUGGGGCCACACACAAAAUCACCAAUGAUUCCGUUACCUUCUGGAGUAAGGACCCCACCCUCUCUGCAGCAAGGGUGGAAUUCUCGGGUGCCAA,4.67
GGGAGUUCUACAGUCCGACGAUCACUGCCUGGAUGUGUUUGAUUUUUUAAAGCGUAGACAUAUAUUUAUGAAUGUGCAUUUCUUGACUUCACAGCAGCCACUUGACUAAUACCUUGUGUUCCGGGAAUAACAUUGGAAUUCUCGGGUGCCAA,0.38

# Series 2 — method: aptamer microarray, sandwich; form: DNA with 2'F-ANA; sample: in vitro; tested at: 200 nM; added: Cy3 exosite-II aptamer, 400 nM; reading: higher = stronger binding; oligonucleotide: GGTTGGTGTGGTTGG
# Target: Prothrombin, mature alpha-thrombin (F2, Homo sapiens, UniProt P00734)
# Notes: whole 15-mer aptamer, many near background
Modification,mean fluorescence intensity
2'F-ANA at 1 5 9 11 12 15,88.7 a.u.
2'F-ANA at 1 6 10,53.7 a.u.
2'F-ANA at 2 3 8 9 15,797 a.u.
2'F-ANA at 3 6 8 12 13 14 15,591 a.u.
2'F-ANA at 1 2 3 5 6 10 11 13 14 15,50.7 a.u.
2'F-ANA at 2 3 4 5 6 7 8 9 11 15,75.5 a.u.
2'F-ANA at 3 8 9 12 13 15,1130 a.u.
2'F-ANA at 1 2 3 7 11 14 15,67.1 a.u.
2'F-ANA at 4 6 9 10 11 12 14 15,60.8 a.u.
2'F-ANA at 1 2 7 10 11 12 13 15,93.2 a.u.
2'F-ANA at 1 2 3 5 6 9 10 12 14 15,49 a.u.
2'F-ANA at 1 2 4 7 8 9 10 11 12 13,56 a.u.
2'F-ANA at 2 6 9 12 13 14,136 a.u.
2'F-ANA at 1 2 4 5 8 10 12 14 15,51.4 a.u.
2'F-ANA at 2 3 4 6 7 8 11,542 a.u.
2'F-ANA at 6 10 11 12 13 15,161 a.u.

# Series 3 — method: RNA Bind-n-Seq; form: RNA; sample: in vitro; tested at: not given; reference: input RNA pool; reading: higher = stronger binding
# Target: RING finger protein unkempt homolog, zinc fingers 1-6, GST-SBP tag (UNK, Homo sapiens, UniProt Q9C0B0, residues 30-357)
# Sequence of UniProt Q9C0B0 (30-357, looked up): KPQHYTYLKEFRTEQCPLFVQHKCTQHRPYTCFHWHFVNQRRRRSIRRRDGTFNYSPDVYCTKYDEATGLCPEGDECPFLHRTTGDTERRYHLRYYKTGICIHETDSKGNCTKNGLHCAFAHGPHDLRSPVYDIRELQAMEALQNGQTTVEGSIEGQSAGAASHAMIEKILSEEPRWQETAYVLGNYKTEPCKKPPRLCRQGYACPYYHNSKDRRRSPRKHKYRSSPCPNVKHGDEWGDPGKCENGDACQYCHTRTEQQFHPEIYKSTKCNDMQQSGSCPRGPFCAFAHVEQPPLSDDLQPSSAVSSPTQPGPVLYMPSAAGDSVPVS
# Notes: RNA with constant flanks, human and mouse sites, ends assumed
Oligonucleotide,bound/input enrichment [ratio]
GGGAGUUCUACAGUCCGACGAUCCUGGCAAUCCAGUGCCGUGCUGACCAGUCUUUCACUUCUCCACCCCCGAGAGAUUUCUUAUUAGAUAUUGCACGACAAAGAAAUCAAACCCCUUUGCCACUGAUCAAGCCAUAUUCAGGUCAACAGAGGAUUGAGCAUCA,0.263
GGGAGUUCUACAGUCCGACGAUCCCAGAUGUCAAAUUAAACCUCGGUGUAAGCGGAGAUUUCAUCAAAGAAUCUACAGCUACUACAUUUCUGAGACAAAGAGGCUAUGGCUGGCUUUUGGAAGUUGAAGAUGAGGAUCCUGAACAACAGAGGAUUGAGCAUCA,0.136
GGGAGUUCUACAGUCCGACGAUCCAUGGAAAAAGAUAAACACAGUCAUUUCUACAACCAAAAAAGUGACUUCAGAAUUGAGCAUAGUAUGCUAGAAGAAUUGGAAAAUAAAUUGAUUCACAGCAGGAAAACAGAAAGAGCAAACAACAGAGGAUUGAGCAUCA,0.456
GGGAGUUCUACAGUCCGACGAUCUUUUUAUGUAGGCGAGCUAACACAGUGUACCUAAUUGCAGAAUUAUCUGAUUAAUUUGUAAUAGAUAAGUUGUAUAACAUUUUCAUAUCUUAAAAUGUUUUUUAGAUCAAUCUUGAAGUGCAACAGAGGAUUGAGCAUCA,0.686
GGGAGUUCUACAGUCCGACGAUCCCAACACUUUGCUCCCUGGCAACCCCUAAUAUUUGGGAUCUCUCAAUGCUAUUUGCCUUCAUUAGCUUGCUCGUUAUGCUUCCCACUUGGUGGAUUGUGUCUUCCUGGCUGGUAUGGGGACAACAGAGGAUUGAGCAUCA,0.246
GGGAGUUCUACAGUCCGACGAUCCGUCCUUGUUAAGCACUGCUUUCCAGACCGUGUCUGACUUAGUCAACCUAGAGGAUUUUAUAGUUUCACUCUAAUGAAGUCCUGAUUAACACAGAGCAGCGGAGCAGCGGUCCCUCCCCUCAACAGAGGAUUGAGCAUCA,0.41
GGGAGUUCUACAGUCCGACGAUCGACUUUUAAUAAUGUUUUUGAAUUUCGUAUUCUUUCAUUCCACUGUGUAAAGUGCUAGACAUUUUCCAAUUUAAAAUUUUGCUUUUUAUCCUGGCACUGGCAAAAAGAACUGUGAAAGUGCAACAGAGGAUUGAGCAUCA,5.71
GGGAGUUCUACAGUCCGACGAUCGACACCUAUCCAGUGUUUCAGAGACUCUUCCUUGAGAGUUCUGAUGCGAACCCAGUGCGCUAUGGACGUAGGCGGAUGAAGCUCCGGGACCUAAUGGAAGCAGCCAAUAUAUUUCUACAGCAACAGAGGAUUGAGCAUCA,0.177
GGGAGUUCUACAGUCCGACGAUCAUGAUUCAGAAUCAUUUUCUAUUGUGGUAUUAUAGGUUGGUUAAAGUGAUGGCCUUUUUGAUGGGUUUUGUUGUGUCUUGUGAACAAGUCGUUACUGUGUCCAUUAUUGGAAUGGAAUUACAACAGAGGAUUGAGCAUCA,0.418
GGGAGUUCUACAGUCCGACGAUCCGGCCGUGGUGUAUUGUGGUCACUGCUGCUCCCUCUCCUUUACCCCCCACCCCCAUUUUGUUUUUGUAAACCAUCCCGUCCACAGUUGUCAGUUGUGAAGAGGGGACCAGAUGUCACUCUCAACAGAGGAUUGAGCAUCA,0.267
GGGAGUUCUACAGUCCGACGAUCAAUGCAGUAGAAGCCAUCCACAGAGCUGUGGAAUUUAAUCCACACGUGCCAAAAUAUCUACUAGAAAUGAAAAGCUUAAUCCUCCCACCAGAACACAUCCUGAAGAGAGGAGACAGUGAACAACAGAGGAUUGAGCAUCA,1.55

# Series 4 — method: protein-binding microarray; form: double-stranded DNA, one strand shown; sample: in vitro; tested at: 250 nM; notes: 60-bp whole probe; added: salmon DNA 0.4 mg/ml; reference: random background probes; reading: higher = stronger binding; all sequences stand within: GCCTAGCAC … GTCTTGATTCGCTTGACGCTGCTG
# Target: Interferon regulatory factor 5, full length, phosphomimetic (IRF5, Homo sapiens, UniProt Q13568-2, residues 1-514, K96S/S451D/S453D/S456D/S462D)
Oligonucleotide,log fluorescence
TTAGGTTTCGACTATCGGATAGTGCTA,8.26 z-score
GACGGTATCCGTTTCCTGACGTGCTAG,0.305 z-score
TATTTTCCTTTAAACTTTTAGTGCTAG,2.15 z-score
TTAGCACTGCTACTGCTTTAGTGCTAG,-0.169 z-score
TGTTGTCTTAGATTCCTTTGGTGCTAG,0.424 z-score
TTAGGTCTCGGTTACGGTTAGTGCTAG,1.01 z-score
TCTGTAATTCTTAGAACAGCGTGCTAG,-0.125 z-score
GATTCTCCTGCCTCAGCCTCGTGCTAG,-0.213 z-score
GACGGTTCACTTTTCCTGACGTGCTAG,0.289 z-score
GTCGATCTCAGTCTCGAGACGTGCTAG,0.185 z-score
TTCATTTTCCAAATGCCCTCGTGCTAG,0.63 z-score
GACGGACTGGGGTTTCGGGAAGTGCTA,1.28 z-score
GACGGTATCCTACTGCTGATGTGCTAG,-0.157 z-score
GTCGGTCTCCTTATCCTGACGTGCTAG,0.0624 z-score
GACGGACTGGGACTAGGGACGTGCTAG,-0.717 z-score
GACGGTTTCTACTTTCGGGACGTGCTA,7.58 z-score
TTATATCTCAGACTGGATTAGTGCTAG,0.295 z-score
TTGCATCTGGGTATTTTTCTGTGCTAG,0.732 z-score
TTAGGTATCGGTATCGATTAGTGCTAG,9.5 z-score
TCCTCTGTCATTTTCTCTTAGTGCTAG,1.78 z-score
GACGGTATCCTTTTCCTTACGTGCTAG,0.596 z-score
TTAGATATCGGGTTTCGATAAGTGCTA,7.18 z-score
TCAGAACTGGGGACTGGATTAGTGCTA,-0.765 z-score
CAAGTTTCTCCTTTGTAAATGTGCTAG,2.57 z-score
CGTAAGCAAAAATGATTGGTGTGCTAG,0.252 z-score

# A few entries again (series 2):
Modification,mean fluorescence intensity
2'F-ANA at 2 3 8 9 15,797 a.u.
2'F-ANA at 1 5 9 11 12 15,88.7 a.u.
2'F-ANA at 4 6 9 10 11 12 14 15,60.8 a.u.
2'F-ANA at 1 2 4 7 8 9 10 11 12 13,56 a.u.
2'F-ANA at 6 10 11 12 13 15,161 a.u.
2'F-ANA at 1 2 3 7 11 14 15,67.1 a.u.
2'F-ANA at 1 2 3 5 6 9 10 12 14 15,49 a.u.
2'F-ANA at 3 6 8 12 13 14 15,591 a.u.
2'F-ANA at 1 2 7 10 11 12 13 15,93.2 a.u.
